Experimental data gathered from unrelated publications.
Parts stem from different laboratories: compare values within a part only. Positions count from the first letter of the parent shown.

Set 1 — technique: protein binding microarray; molecule type: double-stranded DNA, one strand shown; medium: in vitro; tested at: not given; relative to: not given; reading: higher = stronger binding
Target: Histone acetyltransferase KAT6A, winged helix 2, GST fusion (KAT6A, Homo sapiens, UniProt Q92794, residues 85-181)
Setting: 8-mer, flanks averaged, mean of 2 arrays, mostly near background
Residues (chain): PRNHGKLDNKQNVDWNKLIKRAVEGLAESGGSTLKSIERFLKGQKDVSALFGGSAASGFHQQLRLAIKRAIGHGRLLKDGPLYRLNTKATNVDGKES
| Sequence | E-score |
| --- | --- |
| ATTAACTC | 0.102 |
| ACTCAGAC | 0.0336 |
| TCGACACA | 0.0138 |
| ACCTATAG | -0.257 |
| CCCAGATC | -0.0547 |
| ACTATCTG | -0.0596 |
| GTGTAAGA | -0.0653 |

Set 2 — technique: RNA Bind-n-Seq; molecule type: RNA; medium: in vitro; tested at: 365 nM; relative to: no-protein control; reading: higher = stronger binding
Target: RNA binding protein fox-1 homolog 2, RRM domain, GST-SBP tag (RBFOX2, Homo sapiens, UniProt O43251-10, residues 100-194)
Setting: natural RNA segment, single round, ends assumed
Construct (chain): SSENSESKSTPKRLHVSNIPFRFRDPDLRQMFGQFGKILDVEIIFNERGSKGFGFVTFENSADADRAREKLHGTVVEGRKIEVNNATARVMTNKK
| Sequence | RBNS enrichment (R) |
| --- | --- |
| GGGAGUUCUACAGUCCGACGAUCUUUUUUAAAGCAAACUUGUCCUUUGGUUUUGCAGAACAGGCCUGCUCCCUCUCAUCUAGCCCAUCAUUUCUUGGGGCCUGAACCCCAGUGGUCCAAAGUAUUGCUUGUGAUGGAAUUCUCGGGUGCCAA | 1.77 |
| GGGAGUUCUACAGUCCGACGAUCGGCCUUUCCAUAGAGAGGCCCUGGAGUCUAAAAUUAUGAGAACAAUUAAUUUAUUUGUGUCUUCUAUUAUGAUCUCGUUUUGACAAUAAAAAUCCUUACUACUUUCUCAAUGGAAUUCUCGGGUGCCAA | 0.501 |
| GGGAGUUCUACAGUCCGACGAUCACCAGCCUGUGGCAAUCAGCAGGGAAAGACAGGUGCUCCUGUCAUAGGGGCUUGAGCUACCACAGCUACCACACAGCUUUCUGGAUCUUCUAUAUGGCAGUUCAUUCUUGUGGAAUUCUCGGGUGCCAA | 0.248 |
| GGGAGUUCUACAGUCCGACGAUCUUUCUUACUUUCCCACCCGCUUUCUCUCUGGUCUUCUCCCAGGCUGGAUCUGGGCGAAGUGUCACUUUUUAGUGCCUAAAGUCCUAUUGUUUCUCUGUGCCCUAAGAGCAUGGAAUUCUCGGGUGCCAA | 2.42 |
| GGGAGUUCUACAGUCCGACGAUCCCUAGAUGACUAUGCACACACUGGGUUUCAAGAUGAAAUCUUCUUAUAUAUUCAGAUGGAAAAAAAUUUCCCCUUACACUCUUUCUCAAAAUACUCUCAUUUCGGUUUUUUGGAAUUCUCGGGUGCCAA | 0.844 |
| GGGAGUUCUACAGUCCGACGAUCAAGAGAGAACCUAACUGUAUCUUGAGGUGGUAGUAAAACACAGAGGGCCAGUAACGGGUCGUAAUGACUUAUUGUGGAUAACAAAGAUAUCUUUUCUUUAGAGAACUGAAUGGAAUUCUCGGGUGCCAA | 0.349 |
| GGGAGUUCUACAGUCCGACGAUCAAGUCCUAGAAAAUAGAAAAUGUAAUUUUAAACUAUUCCAAUAAAGCUGGAGGAGGAAGGGGAGUUUUGACUAAAGUUCCUUUUGUUUGUUUUAAAUUUUCAUCAAUGUAUGGAAUUCUCGGGUGCCAA | 0.647 |
| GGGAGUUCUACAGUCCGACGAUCAAUAGCAUUUUGUAUGUUAGAGACCAUUCUUUUCUAGUCCUUCCAAACAUUCCUGUGUCACUUAAGAAUGUUAGUAGAGGUCGCUUCUUUGGAAAUUGAGGACUUUUUUUUGGAAUUCUCGGGUGCCAA | 0.274 |

Set 3 — target: CCNB2, cyclin fold, Cln2 fusion (human); technique: yeast growth competition, sequencing; medium: yeast; setting: weak parent motif; relative to: not given; reading: higher = stronger binding
Starting sequence: MASTL docking peptide (human); PMIAKNLMCELDE; partner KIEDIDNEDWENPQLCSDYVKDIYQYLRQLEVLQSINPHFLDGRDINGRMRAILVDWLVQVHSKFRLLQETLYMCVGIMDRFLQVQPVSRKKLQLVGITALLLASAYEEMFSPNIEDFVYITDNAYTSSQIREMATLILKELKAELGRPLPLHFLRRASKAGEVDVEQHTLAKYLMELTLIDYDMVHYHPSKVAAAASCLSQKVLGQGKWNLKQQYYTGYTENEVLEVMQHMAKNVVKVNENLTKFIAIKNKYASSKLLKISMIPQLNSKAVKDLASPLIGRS
| Change | normalised enrichment score |
| --- | --- |
| PMIAKNLMCELLE [D12L] | 0.196 |
| PMQAKNLMCELDE [I3Q] | 0.0919 |
| PMIIKNLMCELDE [A4I] | 0.326 |
| PMIALNLMCELDE [K5L] | 0.109 |
| PFIAKNLMCELDE [M2F] | 0.487 |
| PMIAKNLMCWLDE [E10W] | 0.216 |
| PMIAKNLMCALDE [E10A] | 0.321 |
| PMRAKNLMCELDE [I3R] | 0.077 |
| PMIAKNLMCELVE [D12V] | 0.577 |

Single results of other studies
| Substance | target | test | system | setting | how to read | measurement | result |
| --- | --- | --- | --- | --- | --- | --- | --- |
| PhoQ, residues 284 288 289 292 302 303 SSTMSV | PhoP, residues 12 14 15 18 19 AGCRL (Escherichia coli, UniProt P23836) | Sort-seq, refers to: YFP reporter | E. coli | PhoQ-PhoP variant library, together with: 10 µM Mg2+ | relative to: high Mg2+ state, higher = stronger signaling | fold induction | 1.46 |
